Measurements from different studies.
Protocols differ between the studies behind these lines. “And” joins repeats or separate records; there may be more than shown.
Cell line: HEK-293T

SMILES	test	system	setting	scale	endpoint	result
NCCOCCOCCNC(=O)Cc1ccc(Nc2nc(NCc3ccc(F)cc3)nc(NCC3CCCCC3)n2)cc1	cytotoxicity, CCK-8	–	48 h, 10% FBS	–	IC50	58.9 µM
CC(=O)N[C@@H](Cc1c[nH]c2ccccc12)C(=O)N[C@@H](Cc1c[nH]c2ccccc12)C(=O)N[C@@H](Cc1c[nH]c2ccccc12)C(=O)N[C@@H](Cc1c[nH]c2ccccc12)C(=O)NCCCC[C@@H]1NC(=O)[C@H](CCCNC(=N)N)NC(=O)[C@H](CCCNC(=N)N)NC(=O)[C@H](CCCNC(=N)N)NC(=O)[C@H](CCCNC(=N)N)NC(=O)[C@H](CCCNC(=N)N)NC1=O	MTS	–	concentration not given, 24 h, up to 10 µM	–	viability	≥ 86%
Cc1ncsc1-c1ccc(CNC(=O)[C@@H]2C[C@@H](O)CN2C(=O)[C@@H](NC(=O)COCc2cn(CCOCCOCCOc3cc(C(=O)c4cc(Cl)ccc4NS(=O)(=O)c4ccc(C(C)(C)C)cc4)cc[n+]3[O-])nn2)C(C)(C)C)cc1	CellTiter-Blue	–	0.1 to 2500 nM, 14 h	–	cell viability	not toxic
COc1cc(/C=C/C=C2\SC(=S)NC2=O)ccc1O	CellTiter-Glo	–	10 µM, 24 h, unit not given	relative to: untreated	viability	1.03 and 0.982
OB1c2sccc2C=NN1Cc1ccccc1	cell growth or viability, MTT	–	48 h	–	IC50	> 100 µM
Cc1nc(NCCOCCOCCNc2ncc(C(=O)NC3=NN(c4ccc(Cl)c(Cl)c4)CC3)c(C)n2)ncc1C(=O)NC1=NN(c2ccc(Cl)c(Cl)c2)CC1	cytotoxicity	–	72 h, 10% FBS	–	EC50	> 3 µM
CC(C)C[C@@H]1NC(=O)[C@H](CO)NC(=O)[C@H](CC(=O)O)NC(=O)[C@@H]2CCCN2C(=O)[C@H]2CCCN2C(=O)[C@H](C(C)C)NC(=O)[C@H](CC(=O)O)NC(=O)[C@H](CC(N)=O)NC(=O)[C@H](CCCNC(=N)N)NC(=O)[C@H]([C@@H](C)O)NC(=O)[C@H](C(C)C)NC(=O)CCNC(=O)CCNC(=O)[C@H](Cc2ccccc2)NC(=O)[C@H](C(C)C)NC(=O)[C@H](CC(C)C)NC1=O	subcellular fractionation LC-MS	nuclear fraction	20 µM, 2 h	–	peptide amount per protein	not detected
Cc1ccc(S(=O)(=O)N/N=C/c2ccsc2B(O)O)cc1	cell growth or viability, MTT	–	48 h	–	IC50	> 100 µM
C=CS(=O)(=O)c1ccccc1	cell growth or viability, MTT	–	12.5 µg/mL, 24 h	–	viability	30 to 40%
CC(=O)N[C@H](C(=O)N[C@H](C(=O)N[C@@H](CCCNC(=N)N)C(=O)N[C@@H](CC(N)=O)C(=O)N[C@@H](CC(=O)O)C(=O)N[C@H](C(=O)N1CCC[C@@H]1C(=O)N1CCC[C@H]1C(=O)N[C@@H](CC(=O)O)C(=O)N[C@@H](CO)C(=O)N[C@@H](CC(C)C)C(=O)N[C@@H](CC(C)C)C(=O)N[C@H](C(=O)N[C@@H](Cc1ccccc1)C(N)=O)C(C)C)C(C)C)[C@@H](C)O)C(C)C	subcellular fractionation LC-MS	nuclear fraction	20 µM, 2 h	–	peptide amount per protein	not detected

A few entries again:
SMILES	test	system	setting	scale	endpoint	result
CC(=O)N[C@@H](Cc1c[nH]c2ccccc12)C(=O)N[C@@H](Cc1c[nH]c2ccccc12)C(=O)N[C@@H](Cc1c[nH]c2ccccc12)C(=O)N[C@@H](Cc1c[nH]c2ccccc12)C(=O)NCCCC[C@@H]1NC(=O)[C@H](CCCNC(=N)N)NC(=O)[C@H](CCCNC(=N)N)NC(=O)[C@H](CCCNC(=N)N)NC(=O)[C@H](CCCNC(=N)N)NC(=O)[C@H](CCCNC(=N)N)NC1=O	MTS	–	concentration not given, 24 h, up to 10 µM	–	viability	≥ 86%
